Measured values collected from several papers.
Compare with care: the assays were run in different laboratories. ± marks the error that the study gave.
Cell line: Hep3B

SMILES	assay	conditions	endpoint	result
O=[N+]([O-])c1c(Nc2cc(F)cc(Cl)c2)ccc2nonc12	measured: PGK1	1 or 10 µM, 6 or 12 h, 1% O2	mRNA level	no effect
Cc1ccc(NC(=O)c2cccc(C(F)(F)F)c2)cc1N1Cc2cnc(N)nc2N(C)C1=O	cell growth or viability, ATP luminescence	72 h	GI50	2.7 µM
CC1(C)CCCC(C)(C2CCC3(C)C2C(O)CC2C4(C)CCC(OC(=O)NCc5ccccc5)C(C)(C)C4C(O)CC23C)O1 (stereo not drawn)	HRE reporter gene, inhibitor	24 h, hypoxia	IC50	11.22 ± 0.08 µM
CCOC(=O)/C=C/C(=O)NNC(=O)c1cc2ccccc2cn1	HIF-1α induction, immunoblot	6 h	minimum effective concentration	25 µM
Cc1ccc(Nc2ncc3c(n2)N(C)C(=O)N(c2cc(NC(=O)c4ccc(CN5CCN(C)CC5)c(C(F)(F)F)c4)ccc2C)C3)cn1	cell growth or viability, ATP luminescence	72 h	GI50	0.35 µM
CC1(C)CCCC(C)(C2CCC3(C)C2C(O)CC2C4(C)CCC(OC(=O)Nc5ccccc5)C(C)(C)C4C(OC(=O)Nc4ccccc4)CC23C)O1 (stereo not drawn)	HRE reporter gene, inhibitor	24 h, hypoxia	IC50	15.86 ± 0.12 µM
Cc1ccc(NC(=O)c2cccc(C(F)(F)F)c2)cc1N1Cc2cnc(Nc3ccccc3)nc2N(C)C1=O	cell growth or viability, ATP luminescence	72 h	GI50	0.847 µM
COC1=C(OC)C(O)C(CC=C(C)CCC=C(C)CCC=C(C)C(=O)O)C(C)C1=O (stereo not drawn)	cell growth or viability, MTS	72 h	IC50	> 25 µM
CC1(C)CCCC(C)(C2CCC3(C)C2C(O)CC2C4(C)CCC(OC(=O)NCc5ccccc5)C(C)(C)C4C(OC(=O)NCc4ccccc4)CC23C)O1 (stereo not drawn)	HRE reporter gene, inhibitor	24 h, hypoxia	IC50	> 30 µM
